Results of several laboratories.
Each line is one published result; not all experiments were run side by side.
Cell line: MCF7

Structure (SMILES) = CC12COC(c3ccccc3)OC1CCC1(C)C(C=CC3=CCOC3=O)C(CO)=CCC21 (centres unmarked); assay = cell growth or viability, MTT; setting = 20 µM, 48 h; inhibition = 0%
Structure (SMILES) = Nc1cc(-c2cc(-c3ccccc3)c(C(F)(F)F)s2)n[nH]1; assay = cell growth or viability, MTT; setting = 100 µM, 48 h; inhibition = 25.9%
Structure (SMILES) = C/C(=N\N=c1/[nH]c(-c2ccccc2)cs1)c1ccccn1; assay = cell growth or viability, SRB; setting = 100 µg/mL, 48 h; inhibition = 51.5%
Structure (SMILES) = OC(c1ccc(C(F)(F)F)cc1)c1c[nH]c2ncc(C(F)(F)F)cc12 (centres unmarked); assay = cell growth or viability; setting = 10 µM, 72 h; inhibition = 33%
Structure (SMILES) = COc1ccc(C=CC(=O)c2cccc(O)c2)cc1; assay = cell growth, MTT; setting = 100 µM, 48 h; how to read = baseline: DMSO; inhibition = 89.3%
Structure (SMILES) = CC(C)(C)c1cc2c(O)c(c1)Cc1cc(C(C)(C)C)cc(c1OCC(=O)Nc1nccs1)Cc1cc(C(C)(C)C)cc(c1O)Cc1cc(C(C)(C)C)cc(c1OCC(=O)Nc1nccs1)COC2; assay = cell growth or viability, MTT; setting = 15 µM, 72 h; inhibition = 89%
Structure (SMILES) = CCC(=C(c1ccc(Cl)cc1)c1ccc(OCCN2CCCC2)cc1)c1ccc(Cl)cc1; assay = cell growth or viability; setting = 10 µM; inhibition = 46%
Structure (SMILES) = CC(C)(C)c1cc2c(O)c(c1)Cc1cc(C(C)(C)C)cc(c1OCC(=O)Nc1ccccn1)Cc1cc(C(C)(C)C)cc(c1O)Cc1cc(C(C)(C)C)cc(c1OCC(=O)Nc1ccccn1)COC2; assay = cell growth or viability, MTT; setting = 15 µM, 72 h; inhibition = 23%
Structure (SMILES) = COc1ccc(SCC(=O)c2ccc(O)cc2O)cc1; assay = cell growth or viability, MTT; setting = 100 µM, 48 h; inhibition = 5.48%
Structure (SMILES) = C=C1CC[C@@H]2[C@](C)(CO)[C@H](O)CC[C@@]2(C)[C@@H]1/C=C/C1=CCOC1=O; assay = cell growth or viability, MTT; setting = 20 µM, 48 h; inhibition = 5.52%
Structure (SMILES) = CC(C)(C)c1cc2c(O)c(c1)Cc1cc(C(C)(C)C)cc(c1OCC(=O)Nc1ccncc1)Cc1cc(C(C)(C)C)cc(c1O)Cc1cc(C(C)(C)C)cc(c1OCC(=O)Nc1ccncc1)COC2; assay = cell growth or viability, MTT; setting = 15 µM, 72 h; inhibition = 26%
Structure (SMILES) = OC(c1ccc(OCc2ccccc2)cc1)c1c[nH]c2ncc(C(F)(F)F)cc12 (centres unmarked); assay = cell growth or viability; setting = 10 µM, 72 h; inhibition = 25%
Structure (SMILES) = CC(C)OC1(CO)CCC2C(C)(CO)C(O)CCC2(C)C1C=CC1=CCOC1=O (centres unmarked); assay = cell growth or viability, MTT; setting = 20 µM, 48 h; inhibition = 17%
Structure (SMILES) = Cc1ccc(C2=Nn3c(N/N=C4/C(=O)Nc5ccc(Br)cc54)nnc3SC2)cc1; assay = cell growth or viability, SRB; setting = 10 µM; inhibition = 12%
Structure (SMILES) = C=C/C(=C/C(=O)C[C@H](C)C[C@@H](C)CC[C@H](O)[C@H](C)C(=O)/C=C/[C@H](C)[C@@H](C)O)CC; assay = cell growth or viability, MTT; setting = 50 µM, 48 h; inhibition = 89%
Structure (SMILES) = COc1cc(/C=C/C(=O)/C=C(O)/C=C/c2ccc(OCC(=O)N3CCOCCOCCOCCOCCOCC3)c(OC)c2)ccc1OCC(=O)N1CCOCCOCCOCCOCCOCC1; assay = cell growth or viability, SRB; setting = 5 µM; inhibition = 39%
Structure (SMILES) = CCC(=C(c1ccc(Cl)cc1)c1ccc(OCCN2CCOCC2)cc1)c1ccccc1; assay = cell growth or viability; setting = 10 µM; inhibition = 13.8%
Structure (SMILES) = CCOC(=O)C/C(C)=N/NC(=O)c1nc2ccccc2n(C)c1=O; assay = cell growth or viability, MTT; setting = 10 µM; inhibition = 96%
Structure (SMILES) = C/C(=N\N(c1ccccc1)c1ccccc1)c1ccc(O)cc1; assay = cell growth or viability, MTT; setting = 100 µM, 48 h; inhibition = 69.4%
Structure (SMILES) = CCC(=C(c1ccc(Cl)cc1)c1ccc(OCCN2CCCCC2)cc1)c1ccc(OC)cc1; assay = cell growth or viability; setting = 10 µM; inhibition = 84.7%
Structure (SMILES) = O=C(COc1ccc(/C=N/Nc2nc(-c3ccc(Br)cc3)cs2)cc1)N1CCN(C(=O)COc2ccc(/C=N/Nc3nc(-c4ccc(Br)cc4)cs3)cc2)CC1; assay = cell growth or viability, SRB; setting = 100 µM, 48 h; inhibition = 89.2%
Structure (SMILES) = COc1ccc(CN(CCCCCCC(=O)NO)Cc2ccc(OC)c(OC)c2)cc1OC; setting = 10 µM; inhibition = 55%
Structure (SMILES) = O=C(COc1ccccc1/C=N/Nc1nc(-c2ccc(Br)cc2)cs1)N1CCN(C(=O)COc2ccccc2/C=N/Nc2nc(-c3ccc(Br)cc3)cs2)CC1; assay = cell growth or viability, SRB; setting = 100 µM, 48 h; inhibition = 71.3%
Structure (SMILES) = FC(F)(F)c1cccc(Cc2c[nH]c3ncc(C(F)(F)F)cc23)c1; assay = cell growth or viability; setting = 10 µM, 72 h; inhibition = 51%
Structure (SMILES) = CCC(=C(c1ccc(Cl)cc1)c1ccc(OCCN2CCCC2)cc1)c1ccccc1; assay = cell growth or viability; setting = 10 µM; inhibition = 76.9%
Structure (SMILES) = FC(F)(F)c1ccc(Cc2c[nH]c3ncc(C(F)(F)F)cc23)cc1; assay = cell growth or viability; setting = 10 µM, 72 h; inhibition = 44%
Structure (SMILES) = COc1ccc(CC(C)=C(c2ccc(Cl)cc2)c2ccc(OCCN3CCCCCC3)cc2)cc1; assay = cell growth or viability; setting = 10 µM; inhibition = 37.3%
Structure (SMILES) = N#C/C(=C1C=C/C(=N\O)C(Br)=C/1)c1ccc(Cl)cc1; assay = cell growth or viability, MTT; setting = 100 µM, 48 h; inhibition = 66%
Structure (SMILES) = COc1ccc2cc3[n+](cc2c1OCc1cn(Cc2c(Cl)cc(Cl)cc2Cl)nn1)CCc1cc2c(cc1-3)OCO2.[Cl-]; assay = cell growth, MTT; setting = 7.8 µM; inhibition = > 45%
Structure (SMILES) = CC(Cc1ccc(Cl)cc1)=C(c1ccc(Cl)cc1)c1ccc(OCCN2CCCCC2)cc1; assay = cell growth or viability; setting = 10 µM; inhibition = 36.7%
Structure (SMILES) = FC1(F)Oc2ccc(Cc3c[nH]c4ncc(C(F)(F)F)cc34)cc2O1; assay = cell growth or viability; setting = 10 µM, 72 h; inhibition = 46%
Structure (SMILES) = COc1ccc(CC(C)=C(c2ccc(Cl)cc2)c2ccc(OCCN3CCOCC3)cc2)cc1; assay = cell growth or viability; setting = 10 µM; inhibition = 14.1%
Structure (SMILES) = Fc1ccc(F)c(Cc2c[nH]c3ncc(C(F)(F)F)cc23)c1; assay = cell growth or viability; setting = 10 µM, 72 h; inhibition = 41%
Structure (SMILES) = CCC(=C(c1ccc(Cl)cc1)c1ccc(OCCN2CCCCC2)cc1)c1ccc(Cl)cc1; assay = cell growth or viability; setting = 10 µM; inhibition = 73.4%
Structure (SMILES) = COc1cccc(Cc2c[nH]c3ncccc23)c1; assay = cell growth or viability; setting = 10 µM, 72 h; inhibition = 16%
Structure (SMILES) = COc1ccc(C2=Nn3c(NN=C4C(=O)N(Cc5ccccc5)c5ccc(Cl)cc54)nnc3SC2)cc1; assay = cell growth or viability, SRB; setting = 10 µM; inhibition = 35%
Structure (SMILES) = FC(F)(F)c1cnc2[nH]cc(Cc3cccc(Oc4ccccc4)c3)c2c1; assay = cell growth or viability; setting = 10 µM, 72 h; inhibition = 26%
Structure (SMILES) = CC(C)(C)c1cc2c(O)c(c1)Cc1cc(C(C)(C)C)cc(c1OCC(=O)Nc1cccc3ncccc13)Cc1cc(C(C)(C)C)cc(c1O)Cc1cc(C(C)(C)C)cc(c1OCC(=O)Nc1cccc3ncccc13)COC2; assay = cell growth or viability, MTT; setting = 15 µM, 72 h; inhibition = 23%

Some of these lines once more:
Structure (SMILES) = O=C(COc1ccc(/C=N/Nc2nc(-c3ccc(Br)cc3)cs2)cc1)N1CCN(C(=O)COc2ccc(/C=N/Nc3nc(-c4ccc(Br)cc4)cs3)cc2)CC1; assay = cell growth or viability, SRB; setting = 100 µM, 48 h; inhibition = 89.2%
Structure (SMILES) = CCC(=C(c1ccc(Cl)cc1)c1ccc(OCCN2CCCC2)cc1)c1ccccc1; assay = cell growth or viability; setting = 10 µM; inhibition = 76.9%
Structure (SMILES) = COc1ccc(CC(C)=C(c2ccc(Cl)cc2)c2ccc(OCCN3CCCCCC3)cc2)cc1; assay = cell growth or viability; setting = 10 µM; inhibition = 37.3%
